Measurements from different studies.
Protocols differ between the studies behind these lines. Several values in a cell are separate wells, animals, samples, runs or records. Numbers after ± are the reported error.

| Compound | cell line | assay | test system | conditions | scale | measurement | result |
| --- | --- | --- | --- | --- | --- | --- | --- |
| COc1cc(/C=C/C(=O)N2CCC=CC2=O)cc(OC)c1OC | MDA-MB-468 | quantitative RT-PCR, measured: Survivin | – | 30 µM, 8 h | reference: untreated | mRNA level | 57.7 ± 3.4% |
| CCCCCCCCCc1ccc(OCCOCCOCCOCCOCCOCCOCCOCCOCCO)cc1 | MYBPC3 iPSC cardiomyocytes | plate-normalised | – | concentration not given, 24 h, hit retest | – | MyBP-C level | 19.1% |
| C[C@H](CCC(=O)O)[C@H]1CC[C@H]2[C@@H]3CC[C@@H]4C[C@H](O)CC[C@]4(C)[C@H]3CC[C@]12C | HIEC | – | – | concentration not given, added: deoxycholic acid | reference: deoxycholic acid alone | β-catenin expression | decreased |
| CCn1cc(-c2cc(Cn3ccnc3)cc3c2CCN([C@H](c2cc(OC)ccn2)C2CC2)C3=O)c(C(F)(F)F)n1 | SNU-182 | cell growth, inhibitor | – | 120 h | – | EC50 | > 30 µM |
| Nc1ncnc2c1ncn2[C@@H]1O[C@H](CO)[C@@H](O)[C@H]1O | activated human T cells | measured: UDP | – | 50 µM | reference: DMSO | log2 fold change | -3.9 |
| C/C(=C(\CCOP(=O)(O)O)SC(=O)c1ccccc1)N(C=O)Cc1cnc(C)nc1N | human iPSC-derived cardiomyocytes | MyBP-C/MYH ratio, plate-normalised SD score | – | concentration not given, primary screen | direction not given | activity score | 3.1 |
| CC(=O)c1nn(-c2ccc(Cl)cc2)/c(=N/N=C(\C)c2ccc(NC(=O)c3ccccc3)cc2)s1 | HepG2 | – | – | 5 µM | – | toxicity | 96.2% and 96.9% |
| Cn1cc(-c2ccc(-c3cncc(Cl)c3N3CCC4(CCNC4=O)CC3)cc2)cn1 | COLO 205 | microarray, measured: PGF | – | concentration not given, 6 h, gene set PLGF | reference: untreated cells | fold change in expression | 3.1 |
| C#C[C@@]1(O)[C@@H](CO)O[C@@H](n2cc(Br)c3c(N)ncnc32)[C@@H]1O | M14 | SRB | – | NCI-60 screen | – | TGI | 12.9 µM and 14.2 µM |
| CCCCN1C[C@H](O)[C@@H](O)[C@@H](O)[C@H]1CO | sample BB patient fibroblasts | Gb3 level lowering, LC-MS/MS, measured: Gb3 d18:1/24:1 | – | 216 h | – | IC50 | 10.7 µM |
| CCc1ccc(NC(=O)C2CCC(CNS(=O)(=O)c3ccc4c(c3)CC(C)N4C(C)=O)CC2)cc1 (stereo not shown) | C127 LDR GFP reporter cells | silenced GFP reporter induction, activator, high-content imaging | – | retest, two-run mean | – | efficacy | 29% |
| Clc1nc(NCc2ccco2)c2[nH]cnc2n1 | FD iPSC-derived cardiomyocytes | alternative splicing, RNA-seq, measured: BRD8 exon chr5:138159554-138159599 | – | unit not given | reference: DMSO minus compound | ΔPSI | -0.214 |
| CC/C(=N\NC(=O)NCc1cccc(O)c1)c1ccc(O)c(C)c1O | SK-OV-3 | Western blot, measured: LATS | – | 10 µM, 24 h, 3D gellan gum culture, unit not given | reference: β-actin | protein level | 0.35 ± 0.03 |
| CC(C)NCC(O)c1ccc(O)c(O)c1 (stereo not shown) | mouse ventricular cardiomyocytes | – | – | dose not given, 0.267 s | – | sarcomere length | 1.8 µm |
| O=C(CCCSc1nc2c(c(=O)[nH]1)CCCC2)Nc1ccccc1 | cells, COS-1, expressing proMMP-9 | cell migration, 2D collagen dot migration | – | 50 µM, 18 h | – | inhibition | 76 ± 1% |
| C=Cc1c2[n-]c(c1C)/C=c1\[n-]/c(c(C)c1C=C)=C\c1[n-]c(c(CCC(=O)O)c1C)/C=c1\[n-]c(c(C)c1CCC(=O)O)=C2.[Sn+4] | SH-SY5Y | RNA-seq, measured: HSPB8 mRNA | – | 5 µM, 5 h | reference: untreated cells | fold change | 2.14 |
| C=C1C(=O)O[C@H]2[C@H]1CC/C(C)=C/CC[C@@]1(C)O[C@@H]21 | MYBPC3 iPSC cardiomyocytes | plate-normalised | – | concentration not given, 24 h, hit retest | – | MyBP-C level | 1.7% |
| Clc1ccc(C2(c3ccc(-c4cn[nH]c4)cc3)CCNCC2)cc1 | primary CLL cells | flow cytometry | human | 0.01 µM, 24 h | reference: DMSO, higher = more protein | Mcl-1 MFI | 1210 a.u. |
| Nc1cccc2c1CN(C1CCC(=O)NC1=O)C2=O (stereo not shown) | bone marrow CD138+ myeloma cells | XTT | – | 0.8 µM, mean of three patients | – | viability | 70% |

| Compound | cell line | assay | test system | conditions | scale | measurement | result |
| --- | --- | --- | --- | --- | --- | --- | --- |
| Cn1cc(Nc2nccc(-c3ccc4c(c3)CN(C3COC3)CC[C@H]4NC(=O)c3cn(C(C)(C)C)nn3)n2)cn1 | mouse splenic B cells | measured: PI3K/AKT signalling | – | 30 mg/kg, IgD-activated in vivo | reference: vehicle, direction not given | pathway activation z-score | -1.28 |
| C=CC(C1=CC(=O)C(OC)=CC1=O)c1ccc(O)cc1 (stereo not shown) | human iPSC-derived cardiomyocytes | MyBP-C/MYH ratio, plate-normalised SD score | – | concentration not given, primary screen | direction not given | activity score | 3 |
| Cc1cc(NC(=O)C2CCCN(S(=O)(=O)c3cccc4nonc34)C2)ccc1Br (stereo not shown) | C127 LDR GFP reporter cells | silenced GFP reporter induction, activator, high-content imaging | – | retest, two-run mean | – | efficacy | 32% |
| O=C(/C=C/C=C/C=C/C1CCCCC1)NC1=C[C@@](O)(/C=C/C=C/C=C/C(=O)NC2=C(O)CCC2=O)[C@@H]2O[C@@H]2C1=O | COLO-679 | cell growth, CellTiter-Glo | – | 78 h | – | GI50 | 18.1 µM |
| CC(=O)OC1CC2CCC1(C)C2(C)C (stereo not shown) | human iPSC-derived cardiomyocytes | MyBP-C/MYH ratio, plate-normalised SD score | – | concentration not given, primary screen | direction not given | activity score | 5.7 |
| CCCN1CCN(c2ccc3[nH]c(-c4ccc5[nH]c(-c6ccc(OCC)c(OCC)c6)nc5c4)nc3c2)CC1 | M14 | SRB | – | 10 µM, 48 h | – | growth percent | -65.7% |
| O=C(Nc1cc(OCCN2CCCC2)c2ccccc2n1)c1cc(OCCN2CCCC2)cc(C(=O)Nc2cc(OCCN3CCCC3)c3ccccc3n2)n1 | U2OS | cell viability, CellTiter-Glo | – | 72 h | reference: IC50 U2OS over WI-38 | selectivity ratio | 1 |
| COc1ccc(NC(=O)c2sc3nc(-c4ccc(OC)cc4)cc(C(F)(F)F)c3c2N)cc1 | C127 LDR GFP reporter cells | silenced GFP reporter induction, activator, high-content imaging | – | retest, two-run mean | – | efficacy | 122% |
| CCn1cc(-c2cc(Cn3ccoc3=N)cc3c2CCN([C@@H](C)c2cc(OC)ccn2)C3=O)c(C(F)(F)F)n1 | LS-411N | cell growth, inhibitor | – | 120 h | – | EC50 | 0.00185 µM |
| c1ccc2[nH]ccc2c1 | HCT-8 | RNA-seq, measured: CREBRF | – | concentration not given | – | mRNA level, LS mean | 17 counts per million |
| COc1cc(C(=O)NCCCCCC(=O)O)cc(OC)c1OC | human iPSC-derived cardiomyocytes | MyBP-C/MYH ratio, plate-normalised SD score | – | concentration not given, primary screen | direction not given | activity score | 3.8 |
| Cc1cc(Nc2ncc(Cl)c(Nc3ccccc3S(=O)(=O)C(C)C)n2)c(OC(C)C)cc1C1CCNCC1 | CLB-BAR | phosphoproteomics LC-MS/MS, measured: TJAP1 phosphorylation | – | 200 nM, 60 min | reference: untreated | log2 fold change | -3.14 |
| COc1cnc2cccc(N3CCc4c(cc(Cn5ccnc5C)cc4-c4cn(C)nc4C(F)(F)F)C3=O)c2c1 | LS-411N | cell growth, inhibitor | – | 120 h | – | EC50 | > 30 µM |
| O=C(CC(=O)c1ccccc1)c1ccccc1 | human iPSC-derived cardiomyocytes | MyBP-C/MYH ratio, plate-normalised SD score | – | concentration not given, primary screen | direction not given | activity score | 7.5 |
| O=C(Nc1nnc2n3c(nc(-c4ccc(Cl)cc4)c1-2)SCC3=O)c1ccccc1 | M14 | SRB | – | 10 µM, NCI60 single-dose screen | reference: untreated | cell growth | 104% |
| CCc1cnc(N2CCC(c3nc(COc4ccc(-n5cnnn5)cc4)cs3)CC2)nc1 | HEK-293T | RNA-seq GSEA, measured: HALLMARK_XENOBIOTIC_METABOLISM | – | concentration not given | direction not given | normalized enrichment score | -0.868 |
| COc1cc2nc(N3CCN(C(=O)c4ccco4)CC3)nc(N)c2cc1OC | human iPSC-derived cardiomyocytes | MyBP-C/MYH ratio, plate-normalised SD score | – | concentration not given, primary screen | direction not given | activity score | 4.4 |
| NCCOc1cc(NC(=O)c2cccc(C(=O)Nc3cc(OCCN)c4ccccc4n3)n2)nc2ccccc12 | U2OS | cell viability, CellTiter-Glo | – | 72 h | reference: IC50 U2OS over WI-38 | selectivity ratio | 1.7 |
